# Published values of several laboratories.
# Values joined by “and” are separate records of one study, mostly repeats; a detail may differ.
SMILES,assay,system,conditions,how to read,quantity,value
c1ccc(-c2nc(N3CCC(c4ccccn4)C3)c3ccccc3n2)nc1 (stereo not drawn),,"mouse, Balb/c female, plasma","oral, 12.5 mg/kg, 4 h, mean, together with: aminobenzotriazole pretreatment",,plasma concentration,3780 ng/mL
CSc1cc(Oc2ccnc3[nH]c(=O)cnc23)ccc1NC(=O)Nc1cc(C(C)(C)C)nn1-c1ccccc1,,"NSG mouse, female, plasma","oral, 20 mg/kg, 1 h after last dose",,plasma concentration,28 µM and 49.8 µM and 81.1 µM and 38.8 µM
O=C(c1cc(-n2sc3ncccc3c2=O)ccc1Cl)N1CCOCC1,,mouse,"iv, 1 mg/kg",,plasma half-life,< 40 min
C[C@]12C[C@@]34C=CC(=O)[C@@](C)(CCC(=O)Nc5c(O)ccc(C(=O)S[C@H]6CC(=O)[C@@](C)(CCC(=O)Nc7c(O)ccc(C(=O)O)c7O)[C@@H]7[C@@H]8C[C@@H]9C[C@]67C[C@]9(C)O8)c5O)[C@@H]3[C@H](C[C@@H]1C4)O2,,"C57BL/6 mouse, plasma","intravenous, 10 mg/kg, 1 h",relative to: 1 h level,plasma concentration ratio,3.3
Cc1cc([C@H]2C[C@H]3[C@@H](CF)SC(N)=N[C@@]3(c3ccc(F)cc3F)CO2)on1,,"male 129/SVE wild-type mouse, plasma","subcutaneous, 100 mg/kg, 5 h",,plasma concentration,0.307 µM
C[C@@H](O)[C@H]1C(=O)N2C(C(=O)O)=C(S[C@@H]3CN[C@H](C(=O)N(C)C)C3)[C@H](C)[C@H]12,,"BALB/c mouse, male, plasma","intraperitoneal, 100 mg/kg, 2 h",,plasma concentration,1720 ng/mL
CCCCCN1C[C@H](O)[C@@H](O)[C@H](O)[C@@H]1CO,LC-MS/MS,"mouse Hexb-/- female, plasma","30 mg/kg/day, geometric mean",,plasma concentration,312 ng/mL
Cc1cc([C@H]2C[C@H]3[C@@H](C)SC(N)=N[C@@]3(c3ccc(F)cc3F)CO2)on1,,"male 129/SVE mouse, plasma","subcutaneous, 50 mg/kg, 9 h",,plasma concentration,0.103 µM
C/C=C/C[C@H](C)[C@@H](OC)[C@@H](C)[C@H](O)C[C@H]1OC(=O)C=C[C@H]1CC,,mouse,,,plasma protein binding,98%

# For quick reference, copied from above:
SMILES,assay,system,conditions,how to read,quantity,value
Cc1cc([C@H]2C[C@H]3[C@@H](CF)SC(N)=N[C@@]3(c3ccc(F)cc3F)CO2)on1,,"male 129/SVE wild-type mouse, plasma","subcutaneous, 100 mg/kg, 5 h",,plasma concentration,0.307 µM
